# Published values gathered from unrelated publications.
# Every numbered part comes from another study and shows a few of its results, in no order. Positions count from the first letter of the parent shown.

# Block 1 — technique: RNA Bind-n-Seq; molecule type: RNA; matrix: in vitro; tested at: 365 nM; relative to: no-protein control; reading: higher = stronger binding
# Target: RNA binding protein fox-1 homolog 2, RRM domain, GST-SBP tag (RBFOX2, Homo sapiens, UniProt O43251-10, residues 100-194)
# Setting: natural RNA segment, single round, ends assumed
# Shared flanks, not repeated: GGGAGUUCUACAGUCCGACGAUC … UGGAAUUCUCGGGUGCCAA
# Residues (chain): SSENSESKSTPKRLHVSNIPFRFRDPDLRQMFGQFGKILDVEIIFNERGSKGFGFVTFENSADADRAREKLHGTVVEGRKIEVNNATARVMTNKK
Oligonucleotide,RBNS enrichment (R)
CUAUGUCUGGGACUACGAUCCCUUUUCCCUGGGUAAUAAACUCAGCCACCCAUCCUAAGGAGGCAAGCACUUGGCCUCUUUGAGUGAGACUUGGCUUUAGGACUCUCUGC,0.347
GUGUUUUGUAUAUGAUAUUGCAGUUUUACUAGGCAAAUCUUCAAAAGAUGCACUUUAGGAAACGAAAUAUUUCCUAAAUAACCAGGCUUCCACAUUGUACAGAAUGAGCA,5.13
UCCCGGCCUGGGCCUGGGCUCCUAACACCUGACUGCCAAAGGGCUCCAAUGUGCAUUGUGGACUCGCCAGAGUAGCCUGCAUUGAGACUCCAAGAAAACAGAAGCUAUGU,0.551
ACACGUGUUUUUACUGACUGAAGCCAACCAUCCUGAACUGUCAUGCAGAGAAUUCUUGCAGGAAUCAAUAAGGACGUGUCUCUAAUCACGUGUGCGAACUGAAAUGUCAU,0.452
UUUUUGAGUCAGAGUAGGGCUGGAGAACACUUCAUAUUUGAUGCCUUUUAGCUAAAGACAUUCAUUACUAUAGCACUUCCCAGGCAUUGAAGAGGCAGAGUGAUUUAGAG,0.669
AUCCCCUCUGAGUCCUCUGCCCCUUCCAAGGACACUAAUGAGCCUGGGAGGGUGGCAGGGAGGAGGGGACAGCUUCACCCUUGGAAGUCCUGGGGUUUUUCCUCUUCCUU,0.167
UGUGGAAAUUGAUUGGGAUUUGAUUGUCAGCAACUUGUAUGAGAUUCAUUAAAUGGCCCUGGCAUACAGCCACACACAGCUGCAAAUCUCAGCCAAAGAGGGAAAGGAAA,0.442
GCUCGGUGGAUGCUGGGCCCAAGGUGUAGGCAGAAUGAUUGGCCAGCUGGCCUCUCUCAUCUCUCAGAUCAUGUCUAUCUCAGGGGCCACAAUAAGAAACAUACUCUCCA,0.212
GACUGGAAGCAAGAGGUUCAUUCAAAGAGAAACUCAUGGGAUUUGUAACCAGAUGAAUCAUGAUUUCUAAGACUUCUGAUCAAAAAUACUGUGAAAUAAAGAAUGUUAAU,2.67
GAAACUGAGCUGGGACUGGAAAGGACAGCCCUUGACCUGGGUUCUGGGUAUAAUUUGCACUUUUGAGACUGGUAGCUAACCAUCUUAUGAGUGCCAAUGUGUCAUUUAGU,0.212
UGUCAGUCAUGUAACUGGCAAGGAUCACAGCCCGGUUGGGUGGCAUUCUGUGCCUCUGGCUUGGCUGAACAGUUCUGGAAUUACCACCAGAAUCCUUGACUCCCUGCCCC,0.193
GAAUGAGCACUGGCUGAGGCUGUGGCCUUUGACCUUUAUGUUUCCUCCCGUCCUCUAAGACUAGCUCAUAAGCAUCCUGAGUCAAAGACCUCUGCCUGCCUUGUGAGUAC,0.439

# Block 2 — technique: protein binding microarray; molecule type: double-stranded DNA, one strand shown; matrix: in vitro; tested at: not given; relative to: not given; reading: higher = stronger binding
# Target: Histone acetyltransferase KAT6A, both winged helices, GST fusion (KAT6A, Homo sapiens, UniProt Q92794, residues 1-181)
# Setting: 8-mer, flanks averaged, mean of 2 arrays, mostly near background
# Construct (chain): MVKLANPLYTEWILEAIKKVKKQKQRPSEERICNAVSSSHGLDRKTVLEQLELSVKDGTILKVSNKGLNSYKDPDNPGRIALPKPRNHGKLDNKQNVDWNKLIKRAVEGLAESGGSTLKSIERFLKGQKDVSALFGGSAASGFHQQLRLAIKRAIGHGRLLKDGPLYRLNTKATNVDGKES
Oligonucleotide,E-score
AACAGGCG,0.111
ATCGGAGC,0.0301
GTTTCCAA,-0.149
GAGCCCAA,-0.195
AACCGATC,0.0898
GATTTTCC,0.0636
AAATAGCG,0.178
AGATCCTC,-0.0894
ACATAGGA,-0.109
ATGGCAGC,-0.0132
AGGAGTAC,-0.108
CCTAACAC,-0.106
CGGTCTAA,0.1
CACTGACC,-0.0615
CCAAAATC,-0.0991
CATCGTAC,-0.0808
TCCATCGA,-0.0462
CCAGGACC,-0.0789
CATAAACC,-0.0789
GGTCTGCA,0.0185

# Block 3 — target: CCNB3, cyclin fold, Cln2 fusion (human); technique: yeast growth competition, sequencing; matrix: yeast; setting: weak parent motif; relative to: not given; reading: higher = stronger binding
# Starting sequence: CDKN1B docking peptide (human); PSACRNLFGPVDH
Change,normalised enrichment score
C4L,0.358
L7R,0.08
F8G,-0.204
G9F,0.45
L7Q,0.131
L7W,-0.154
A3P,0.249
A3W,0.345
N6W,0.292
S2K,0.383
V11Y,0.269
P1D,0.0158
P10T,0.191
P10K,0.121
G9P,0.0163
H13A,0.337
R5C,0.0249
L7T,-0.0893
P1A,0.692
V11W,0.919
P1H,0.391
H13W,0.547
G9A,0.305
R5P,0.134
V11T,0.17

# Block 4 — technique: RNA Bind-n-Seq; molecule type: RNA; matrix: in vitro; tested at: not given; relative to: input RNA pool; reading: higher = stronger binding
# Target: RING finger protein unkempt homolog, zinc fingers 1-6, GST-SBP tag (UNK, Homo sapiens, UniProt Q9C0B0, residues 30-357)
# Setting: RNA with constant flanks, human and mouse sites, ends assumed
# Shared flanks, not repeated: GGGAGUUCUACAGUCCGACGAUC … CAACAGAGGAUUGAGCAUCA
# Construct (chain): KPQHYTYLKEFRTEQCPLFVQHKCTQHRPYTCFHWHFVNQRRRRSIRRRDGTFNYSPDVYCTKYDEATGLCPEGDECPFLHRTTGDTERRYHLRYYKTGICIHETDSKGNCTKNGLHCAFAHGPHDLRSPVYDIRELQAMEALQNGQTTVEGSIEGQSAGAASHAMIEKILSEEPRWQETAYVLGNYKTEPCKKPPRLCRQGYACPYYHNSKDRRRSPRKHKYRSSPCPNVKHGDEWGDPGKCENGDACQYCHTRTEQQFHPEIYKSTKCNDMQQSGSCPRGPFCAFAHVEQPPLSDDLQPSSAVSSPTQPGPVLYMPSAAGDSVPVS
Oligonucleotide,bound/input enrichment
GUCUUCACGUGCUUCCGUUGUGCAGCUGCCUGGUGUCGGCCGGAGCAGGGCGCAGUGAUAGCUUUUCAUCAUGAAUCGGAAGAAGGUGGAUAACCGAAUUCGAAUUCUCAUUGAGAAUGG,0.145 ratio
GAUCGAACCUGGUCAUUGUGGAAAAAGCAGGAUACAAUCUCACCUGAGUUCGAGCCAGUUUUUAGUCUUUUUGCCUUCACCAACAAAAUUACUUCUGUGCACAGUAGAAUUAUUUGGUCU,2.02 ratio
GGUAGUGAACAAUGACCUCAUUUUAUUUUCUAUGUUAGUUAUUUAUUUCAAAAUUUACAUUUUAGUUUAUUUUCGUCUGUAAAGCGUAUGUUUCGCACUGCUCUUUUACUCUGAGGGUUU,339 ratio
AGAGUCCAAUAAAAUCGCUGCCUCCCAGCUGUUUGGAUCACAGAGAGGUUUUUGCACUGCCAUAGGGCGCCCCCGUGAGGCGCUUCGCCCCCCACCAUGUUCCAGCGCCUCUCCAGCCUC,0.406 ratio
ACCCAUGCUUUUAUGGACACUAGGUAAACACCUUCAGCUUAAAUUUUUCGUUAAAUAUUUUAGUUUAUUUUAUUGUUAUCUUCCAGGUGUCUAAAUCUCCAGUCUGUCUGUUGUACUGGU,6.62 ratio
GCGGAGAAAAAAAAUUACUUAUUUUCUUGCCCCAUACAUACCUUGAGGCGAGCAAAAAAAUUAAAUUUUAACCAUGAGGGAAAUCGUGCACAUCCAGGCUGGUCAGUGUGGCAACCAGAU,0.303 ratio
AGAAGAAAGCGAGCCCGGCAGAUCAAUGUUUCCACAGAUGACUCAGAGGUCAAGGCUUGCCUUCGAGCCUUGGGAGAGCCUAUCACGCUUUUUGGAGAGGGCCCUGCUGAACGAAGAGAA,0.163 ratio
CAUGCUUUGAAGCUGGAUUCUUUUGGCCAGUUUGUUGAAUUAUUGCCCAGCCUGGAAUUUAUUUCUCUGGACCAGAUGUUCCGUGAGCCACCCAAGGGCUGUGCUCGAGUUGGUCUGAGU,0.112 ratio
AUUUUUUUAUUUGUUUUCAGGGGGGUUUUUUGGGGGAAAAUUUUUUUAAAUGGAAGCUUCUAGCAAGCCCCCCACCCCAAUCAACCUCUAUGCUUUCUUCUUAAAAAAAAAAAAAAAGGA,0.459 ratio
AUCCCACUGGGGAACUAGUCCUGUCCAUCUGGUGUUGGCGUGCUGGCUGCACACUUUGUUUUAGGGCCUGAACACCUGUGUGUAUGUGUGUGUGUAUGUGUGUGUGUGCGUGCGUGUGCU,0.539 ratio
CCAGGGCCUCCGCCAGCAGGGAGGGGGUGUGCUCACUGCAGGAACGUUCAUUUAGAAGAUGUACCAUGGAGCACCUCCCUUUGCUCUAAGAGAAAACCCAUCUUAAAGUUCAUCUUGAAU,0.097 ratio

# Block 5 — technique: universal PBM; molecule type: double-stranded DNA, one strand shown; matrix: in vitro; tested at: not given; reading: higher = stronger binding
# Target: Sal-like protein 4, full length isoform B (SALL4, Homo sapiens, UniProt Q9UJQ4-2, residues 1-616)
# Setting: 8-mer, flanks averaged, mean of replicates
Oligonucleotide,E-score
CTCCCAGC,-0.259
CAGAGAGA,-0.207
AATATTGT,0.418
CCTGCCGA,-0.19
CTGAGTAC,-0.168
CGGGTGAG,-0.241
ATTTCTCG,0.187
GGCCACTA,-0.163
ACTGGTCC,-0.263
CAGAATGC,-0.0858
AGTAGGAC,-0.0999
GCGCCAGC,-0.24
ACGGTCAC,-0.258
ACACCATG,-0.11
ACTGTGGG,-0.277
AGCTTAAG,0.0459
ACAACTCA,0.131
GACTTATC,-0.0682
ACCATCTG,-0.227
CGATGCAG,-0.243
GACTTCTC,0.0705
ACTCTACC,-0.0226
CGCGTCAA,-0.125
CTGTATAA,0.286
ACAACTGC,-0.0166

# A few entries again (block 5):
Oligonucleotide,E-score
CGCGTCAA,-0.125
AGTAGGAC,-0.0999
ATTTCTCG,0.187
GGCCACTA,-0.163
ACTGGTCC,-0.263
ACTCTACC,-0.0226
CGATGCAG,-0.243
GACTTATC,-0.0682
GACTTCTC,0.0705
CGGGTGAG,-0.241
ACAACTCA,0.131
AGCTTAAG,0.0459
CCTGCCGA,-0.19
